Results pooled from the literature.
Lines come from different studies, so protocols differ. Values joined by “and” are separate records of one study, mostly repeats; a detail may differ. ± gives the spread as reported.
Chain of UniProt Q15139 (whole entry, looked up): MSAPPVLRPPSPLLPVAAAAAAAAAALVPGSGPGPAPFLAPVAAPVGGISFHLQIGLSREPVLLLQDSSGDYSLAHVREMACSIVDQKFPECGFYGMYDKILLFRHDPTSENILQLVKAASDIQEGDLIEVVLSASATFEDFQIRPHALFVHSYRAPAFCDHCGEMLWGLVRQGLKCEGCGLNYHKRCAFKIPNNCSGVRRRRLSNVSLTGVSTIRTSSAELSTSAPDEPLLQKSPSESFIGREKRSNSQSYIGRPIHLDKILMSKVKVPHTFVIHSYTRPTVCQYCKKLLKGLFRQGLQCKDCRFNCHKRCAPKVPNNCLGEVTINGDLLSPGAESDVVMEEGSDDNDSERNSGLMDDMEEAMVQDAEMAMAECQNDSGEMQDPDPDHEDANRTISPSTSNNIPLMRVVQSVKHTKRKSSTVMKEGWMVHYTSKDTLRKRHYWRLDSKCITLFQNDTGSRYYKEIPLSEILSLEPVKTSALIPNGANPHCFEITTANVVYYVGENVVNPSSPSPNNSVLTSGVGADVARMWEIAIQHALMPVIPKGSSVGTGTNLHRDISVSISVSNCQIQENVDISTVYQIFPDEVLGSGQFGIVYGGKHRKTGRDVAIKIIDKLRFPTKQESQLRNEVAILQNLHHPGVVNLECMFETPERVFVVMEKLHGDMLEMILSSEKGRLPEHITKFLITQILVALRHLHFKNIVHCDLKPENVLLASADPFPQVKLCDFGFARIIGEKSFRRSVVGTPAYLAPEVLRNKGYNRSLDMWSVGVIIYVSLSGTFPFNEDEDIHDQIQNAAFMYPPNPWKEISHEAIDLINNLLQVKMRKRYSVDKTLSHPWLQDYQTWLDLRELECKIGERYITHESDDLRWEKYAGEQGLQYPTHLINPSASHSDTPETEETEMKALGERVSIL
Chain of UniProt P46098 (whole entry, looked up): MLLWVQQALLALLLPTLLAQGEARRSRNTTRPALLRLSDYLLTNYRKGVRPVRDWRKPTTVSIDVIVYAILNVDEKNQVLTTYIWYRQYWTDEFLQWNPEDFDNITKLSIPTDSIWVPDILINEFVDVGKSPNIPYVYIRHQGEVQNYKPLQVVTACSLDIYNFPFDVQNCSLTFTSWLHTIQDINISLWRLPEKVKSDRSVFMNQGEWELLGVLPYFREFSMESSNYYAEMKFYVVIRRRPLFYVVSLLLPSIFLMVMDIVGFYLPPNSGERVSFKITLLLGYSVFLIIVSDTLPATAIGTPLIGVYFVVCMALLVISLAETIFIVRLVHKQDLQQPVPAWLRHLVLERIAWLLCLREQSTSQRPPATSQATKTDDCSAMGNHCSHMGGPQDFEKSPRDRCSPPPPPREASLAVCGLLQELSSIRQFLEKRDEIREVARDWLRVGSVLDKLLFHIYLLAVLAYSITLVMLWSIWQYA
Chain of UniProt P31944 (whole entry, looked up): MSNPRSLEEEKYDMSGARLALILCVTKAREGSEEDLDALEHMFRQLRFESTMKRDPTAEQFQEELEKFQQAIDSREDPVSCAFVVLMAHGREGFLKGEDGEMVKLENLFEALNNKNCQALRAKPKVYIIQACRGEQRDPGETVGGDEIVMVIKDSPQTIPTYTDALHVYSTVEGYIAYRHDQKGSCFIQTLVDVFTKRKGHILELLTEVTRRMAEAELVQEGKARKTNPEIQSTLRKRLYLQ
Chain of UniProt P19525 (whole entry, looked up): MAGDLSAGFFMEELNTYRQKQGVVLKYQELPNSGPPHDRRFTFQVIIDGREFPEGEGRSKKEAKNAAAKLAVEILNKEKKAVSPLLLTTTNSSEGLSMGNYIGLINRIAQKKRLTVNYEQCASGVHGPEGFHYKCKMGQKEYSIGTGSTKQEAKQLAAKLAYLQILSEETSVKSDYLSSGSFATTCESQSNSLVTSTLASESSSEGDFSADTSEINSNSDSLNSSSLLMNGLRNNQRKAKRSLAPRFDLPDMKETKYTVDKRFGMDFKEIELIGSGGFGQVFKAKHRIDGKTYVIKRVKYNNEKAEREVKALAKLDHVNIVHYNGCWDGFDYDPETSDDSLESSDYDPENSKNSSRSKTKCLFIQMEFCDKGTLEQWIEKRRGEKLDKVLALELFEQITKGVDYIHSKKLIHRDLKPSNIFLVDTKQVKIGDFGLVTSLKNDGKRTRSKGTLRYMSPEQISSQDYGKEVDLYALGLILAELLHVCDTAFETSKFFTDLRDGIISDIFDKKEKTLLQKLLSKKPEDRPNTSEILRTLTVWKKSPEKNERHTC
Chain of UniProt Q13639 (whole entry, looked up): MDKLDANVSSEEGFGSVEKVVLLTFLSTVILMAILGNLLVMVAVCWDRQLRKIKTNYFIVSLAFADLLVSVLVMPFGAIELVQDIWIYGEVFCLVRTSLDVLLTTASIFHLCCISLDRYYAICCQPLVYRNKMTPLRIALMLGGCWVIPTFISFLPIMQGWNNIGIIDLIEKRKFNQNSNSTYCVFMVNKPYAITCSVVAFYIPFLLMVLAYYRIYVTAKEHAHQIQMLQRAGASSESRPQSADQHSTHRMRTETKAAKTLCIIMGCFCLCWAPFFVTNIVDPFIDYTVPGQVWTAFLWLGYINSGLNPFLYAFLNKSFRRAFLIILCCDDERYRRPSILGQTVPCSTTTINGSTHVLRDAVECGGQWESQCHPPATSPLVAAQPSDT
Chain of UniProt Q9UBS5 (whole entry, looked up): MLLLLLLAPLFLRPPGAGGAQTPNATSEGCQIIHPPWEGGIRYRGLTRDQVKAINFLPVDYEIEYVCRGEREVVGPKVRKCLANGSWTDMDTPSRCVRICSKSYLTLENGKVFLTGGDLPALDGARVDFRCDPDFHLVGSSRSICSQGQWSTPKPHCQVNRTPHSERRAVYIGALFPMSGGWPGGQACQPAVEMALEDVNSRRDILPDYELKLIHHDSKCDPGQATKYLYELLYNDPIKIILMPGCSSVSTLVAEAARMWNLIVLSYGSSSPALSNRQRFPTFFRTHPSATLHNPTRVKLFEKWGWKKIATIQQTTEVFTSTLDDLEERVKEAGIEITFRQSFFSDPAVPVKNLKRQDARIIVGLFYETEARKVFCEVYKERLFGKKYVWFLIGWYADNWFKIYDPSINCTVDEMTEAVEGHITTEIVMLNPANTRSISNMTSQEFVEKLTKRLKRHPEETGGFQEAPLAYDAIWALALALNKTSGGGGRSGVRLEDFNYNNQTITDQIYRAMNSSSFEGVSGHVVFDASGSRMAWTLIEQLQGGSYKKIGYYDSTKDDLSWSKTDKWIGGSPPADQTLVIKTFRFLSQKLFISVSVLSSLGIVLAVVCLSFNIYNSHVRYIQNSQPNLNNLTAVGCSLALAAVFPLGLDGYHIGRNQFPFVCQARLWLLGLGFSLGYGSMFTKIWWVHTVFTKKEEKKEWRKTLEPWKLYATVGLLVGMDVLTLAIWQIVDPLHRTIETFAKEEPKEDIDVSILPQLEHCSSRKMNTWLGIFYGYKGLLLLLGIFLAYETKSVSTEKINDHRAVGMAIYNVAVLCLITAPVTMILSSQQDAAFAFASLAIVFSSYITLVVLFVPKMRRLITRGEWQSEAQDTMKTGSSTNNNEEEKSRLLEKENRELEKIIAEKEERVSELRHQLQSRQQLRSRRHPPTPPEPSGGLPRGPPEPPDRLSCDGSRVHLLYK
Chain of UniProt P36897 (whole entry, looked up): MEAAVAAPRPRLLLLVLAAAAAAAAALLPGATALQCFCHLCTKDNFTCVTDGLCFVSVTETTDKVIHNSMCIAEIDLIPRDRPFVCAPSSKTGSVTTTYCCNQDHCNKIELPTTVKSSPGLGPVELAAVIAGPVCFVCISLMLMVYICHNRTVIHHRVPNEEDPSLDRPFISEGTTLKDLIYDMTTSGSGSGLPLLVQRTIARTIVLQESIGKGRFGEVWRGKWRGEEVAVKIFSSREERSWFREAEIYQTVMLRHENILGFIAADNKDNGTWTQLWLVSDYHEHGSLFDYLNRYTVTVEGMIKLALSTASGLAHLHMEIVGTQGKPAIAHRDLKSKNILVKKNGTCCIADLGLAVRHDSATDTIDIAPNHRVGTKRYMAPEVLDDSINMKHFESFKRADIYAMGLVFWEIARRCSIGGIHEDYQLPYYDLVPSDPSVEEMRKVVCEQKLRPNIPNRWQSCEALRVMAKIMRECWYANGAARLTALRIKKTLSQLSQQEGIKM

O=C1NC2(CC2)COc2ncc(F)cc2[C@H]2COCCN2c2ccn3ncc1c3n2  organ weight (Sprague-Dawley rat, male, adrenals; oral, 2.5 mg/kg/day, 4 weeks): 0.072 ± 0.008 g
Cc1ccc(N2CC(N(C)C)C2)cc1C(=O)N[C@H](C)c1cc(-c2cnn(C)c2)nc2ccccc12  viability (Vero E6; 125 µM): 95.1% and 92.5% and 98.9%
Nc1ccc(/C=C/C(=O)N2CCc3c(oc4c(-c5ccc(F)cc5)cc(-c5ccc(C(=O)N6CCC(F)(F)CC6)cn5)cc34)C2)cn1  remaining binding (TGFBR1 (Homo sapiens, UniProt P36897); binding, competition with immobilised ligand; 1 µM): 96%
O=C1NC(=O)c2c1c1cc(F)c[n+]3c1c1c2c2cc(O)ccc2[n]1[Ru-4]312([N]=C=S)[S+]3CC[S+]1CC[S+]2CC3 (centres unmarked)  remaining activity (PRKD1 (Homo sapiens, UniProt Q15139); enzyme activity; 100 nM, human enzyme, with: 10 µM ATP; reference: untreated): 76%
N[C@H](C(=O)N1CCCC1)C1CCN(c2nccc3c(-c4ncc(Cl)cc4Cl)cccc23)CC1  response (5-hydroxytryptamine receptor 4, isoform 5-HT4e (HTR4, Homo sapiens, UniProt Q13639); functional response, agonist; 10 µM): 1%
CN(C)[C@H]1C[C@@]23CC[C@@]4(O2)C(=CC[C@]2(C)[C@@H](c5ccc6ccncc6c5)CC[C@H]24)C=C3[C@@H](O)[C@@H]1O  inhibition (EIF2AK2 (Homo sapiens, UniProt P19525); ATP probe labelling, inhibitor, KiNativ profiling; 1 µM): 2.7%
CCn1ccc(-c2cc([C@@H](C)NC(=O)c3cc(N4CCN(C)CC4)ccc3C)c3ccccc3n2)n1  viability (Vero E6; 125 µM): 1.8% and 0.898%
Cc1sc2c(c1C)C(c1ccc(Cl)cc1)=NC(CC(=O)OC(C)(C)C)c1nnc(C)n1-2 (centres unmarked)  remaining binding (HTR3A (Homo sapiens, UniProt P46098); ligand displacement, radioligand; 1 µM): 106%
CS(C)(=O)=Nc1ccc(-c2ccc(-c3nc4cc(O[C@@H]5CO[C@H]6[C@@H]5OC[C@H]6O)[nH]c4cc3F)cc2)cc1  inhibition (GABBR1 (Homo sapiens, UniProt Q9UBS5); agonist response, antagonist; 10 µM; reference: control agonist response): 38%
CC(C)CC(C(=O)N1CC2(CC1C#N)C(=O)Nc1ccccc12)N(C)C(=O)c1cc2c(F)cc(F)c(F)c2[nH]1 (centres unmarked)  Hill slope (Caspase-14 (Homo sapiens, UniProt P31944)): -0.76
CC(C)[C@H]1NC(=O)C[C@H]2/C=C/CCSSC[C@@H](NC1=O)C(=O)N[C@H](Cc1cccc3ccccc13)C(=O)NCC(=O)O2  inhibition (RET (Homo sapiens, UniProt P07949, G691S); enzyme activity, inhibitor; 10 µM): 7.2%
